Published values gathered from unrelated publications.
Lines come from different studies, so protocols differ. “And” joins repeats or separate records; there may be more than shown. ± gives the spread as reported.
UniProt P31645, sequence (whole entry, looked up): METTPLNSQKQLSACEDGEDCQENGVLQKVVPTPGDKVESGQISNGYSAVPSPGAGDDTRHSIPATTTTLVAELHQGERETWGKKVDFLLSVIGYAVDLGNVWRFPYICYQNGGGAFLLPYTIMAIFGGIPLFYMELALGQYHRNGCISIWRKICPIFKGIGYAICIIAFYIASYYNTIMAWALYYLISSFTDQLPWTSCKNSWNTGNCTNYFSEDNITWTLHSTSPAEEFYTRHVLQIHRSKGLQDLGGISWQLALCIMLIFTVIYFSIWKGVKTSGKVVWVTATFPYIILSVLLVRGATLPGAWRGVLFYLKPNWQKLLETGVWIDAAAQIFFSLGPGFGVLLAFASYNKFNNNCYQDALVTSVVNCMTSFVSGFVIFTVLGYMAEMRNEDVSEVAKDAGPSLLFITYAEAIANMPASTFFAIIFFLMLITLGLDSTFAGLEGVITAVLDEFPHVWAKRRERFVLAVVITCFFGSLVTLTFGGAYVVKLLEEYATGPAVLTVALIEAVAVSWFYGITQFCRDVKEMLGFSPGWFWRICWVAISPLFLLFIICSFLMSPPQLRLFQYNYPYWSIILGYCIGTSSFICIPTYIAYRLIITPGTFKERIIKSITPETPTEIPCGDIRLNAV
UniProt O43293, sequence (whole entry, looked up): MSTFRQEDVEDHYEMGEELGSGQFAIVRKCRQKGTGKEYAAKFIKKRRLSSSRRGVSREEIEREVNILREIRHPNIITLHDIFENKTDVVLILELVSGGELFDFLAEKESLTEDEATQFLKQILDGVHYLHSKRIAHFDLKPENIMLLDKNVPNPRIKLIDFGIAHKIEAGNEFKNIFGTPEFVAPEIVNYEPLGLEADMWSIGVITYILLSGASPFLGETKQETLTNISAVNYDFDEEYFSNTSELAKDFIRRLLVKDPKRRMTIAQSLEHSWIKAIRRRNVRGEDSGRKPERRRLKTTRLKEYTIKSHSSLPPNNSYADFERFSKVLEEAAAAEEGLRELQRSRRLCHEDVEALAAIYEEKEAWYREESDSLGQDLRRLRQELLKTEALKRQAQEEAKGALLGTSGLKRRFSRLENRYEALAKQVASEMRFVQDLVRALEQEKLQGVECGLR
UniProt Q86UX6, sequence (whole entry, looked up): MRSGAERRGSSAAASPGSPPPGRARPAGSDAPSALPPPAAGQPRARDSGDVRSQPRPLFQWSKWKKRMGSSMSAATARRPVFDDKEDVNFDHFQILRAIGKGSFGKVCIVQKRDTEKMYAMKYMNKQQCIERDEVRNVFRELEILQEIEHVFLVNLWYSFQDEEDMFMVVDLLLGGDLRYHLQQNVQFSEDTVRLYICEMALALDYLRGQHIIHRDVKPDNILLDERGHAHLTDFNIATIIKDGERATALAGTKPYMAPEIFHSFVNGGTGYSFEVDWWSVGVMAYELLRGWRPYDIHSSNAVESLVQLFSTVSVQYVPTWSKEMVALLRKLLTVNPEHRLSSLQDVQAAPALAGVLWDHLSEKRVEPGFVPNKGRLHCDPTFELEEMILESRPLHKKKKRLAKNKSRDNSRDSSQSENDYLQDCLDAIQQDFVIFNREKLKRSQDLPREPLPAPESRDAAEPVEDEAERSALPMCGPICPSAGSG
UniProt P08183, sequence (whole entry, looked up): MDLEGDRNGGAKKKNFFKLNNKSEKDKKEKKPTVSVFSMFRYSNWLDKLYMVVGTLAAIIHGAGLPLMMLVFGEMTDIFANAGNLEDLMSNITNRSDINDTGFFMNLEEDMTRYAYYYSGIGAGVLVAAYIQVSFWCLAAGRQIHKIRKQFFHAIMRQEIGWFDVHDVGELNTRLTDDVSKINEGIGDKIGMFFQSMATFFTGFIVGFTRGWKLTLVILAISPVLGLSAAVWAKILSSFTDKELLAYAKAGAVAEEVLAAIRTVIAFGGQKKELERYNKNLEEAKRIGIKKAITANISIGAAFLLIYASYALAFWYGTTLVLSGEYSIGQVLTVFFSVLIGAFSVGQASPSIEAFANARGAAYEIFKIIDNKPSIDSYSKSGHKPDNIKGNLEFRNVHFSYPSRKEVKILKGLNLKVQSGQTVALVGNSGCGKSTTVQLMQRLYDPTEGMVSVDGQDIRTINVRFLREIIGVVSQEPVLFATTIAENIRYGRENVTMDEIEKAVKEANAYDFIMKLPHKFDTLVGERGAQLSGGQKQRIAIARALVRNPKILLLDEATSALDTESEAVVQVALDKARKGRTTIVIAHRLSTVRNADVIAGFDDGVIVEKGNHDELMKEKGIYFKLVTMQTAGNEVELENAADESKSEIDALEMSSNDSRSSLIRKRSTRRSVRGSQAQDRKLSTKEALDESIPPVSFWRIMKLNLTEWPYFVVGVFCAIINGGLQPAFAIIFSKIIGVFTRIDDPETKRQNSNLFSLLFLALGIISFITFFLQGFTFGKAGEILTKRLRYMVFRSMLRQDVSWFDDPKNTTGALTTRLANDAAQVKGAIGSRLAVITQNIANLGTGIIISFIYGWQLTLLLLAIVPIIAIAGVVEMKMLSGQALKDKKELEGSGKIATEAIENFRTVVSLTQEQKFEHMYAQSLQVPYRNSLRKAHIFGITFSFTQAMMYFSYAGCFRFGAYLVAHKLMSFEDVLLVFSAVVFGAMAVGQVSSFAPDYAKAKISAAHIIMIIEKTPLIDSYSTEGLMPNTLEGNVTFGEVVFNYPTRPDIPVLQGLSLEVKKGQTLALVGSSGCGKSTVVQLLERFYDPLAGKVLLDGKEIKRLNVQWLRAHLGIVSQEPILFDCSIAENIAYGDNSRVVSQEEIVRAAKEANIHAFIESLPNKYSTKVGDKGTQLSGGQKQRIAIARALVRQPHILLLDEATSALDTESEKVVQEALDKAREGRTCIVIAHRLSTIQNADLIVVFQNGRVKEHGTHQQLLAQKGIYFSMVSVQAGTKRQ
UniProt O43684, sequence (whole entry, looked up): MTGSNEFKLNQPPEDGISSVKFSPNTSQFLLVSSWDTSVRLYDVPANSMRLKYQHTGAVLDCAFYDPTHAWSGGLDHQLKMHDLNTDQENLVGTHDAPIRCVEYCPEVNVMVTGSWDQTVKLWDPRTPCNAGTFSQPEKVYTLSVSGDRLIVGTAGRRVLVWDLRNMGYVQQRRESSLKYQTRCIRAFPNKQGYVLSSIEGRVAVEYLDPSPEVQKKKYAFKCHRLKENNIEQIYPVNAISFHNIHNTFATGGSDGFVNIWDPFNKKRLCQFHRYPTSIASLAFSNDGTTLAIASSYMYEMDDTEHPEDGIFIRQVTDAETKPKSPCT
UniProt Q92993, sequence (whole entry, looked up): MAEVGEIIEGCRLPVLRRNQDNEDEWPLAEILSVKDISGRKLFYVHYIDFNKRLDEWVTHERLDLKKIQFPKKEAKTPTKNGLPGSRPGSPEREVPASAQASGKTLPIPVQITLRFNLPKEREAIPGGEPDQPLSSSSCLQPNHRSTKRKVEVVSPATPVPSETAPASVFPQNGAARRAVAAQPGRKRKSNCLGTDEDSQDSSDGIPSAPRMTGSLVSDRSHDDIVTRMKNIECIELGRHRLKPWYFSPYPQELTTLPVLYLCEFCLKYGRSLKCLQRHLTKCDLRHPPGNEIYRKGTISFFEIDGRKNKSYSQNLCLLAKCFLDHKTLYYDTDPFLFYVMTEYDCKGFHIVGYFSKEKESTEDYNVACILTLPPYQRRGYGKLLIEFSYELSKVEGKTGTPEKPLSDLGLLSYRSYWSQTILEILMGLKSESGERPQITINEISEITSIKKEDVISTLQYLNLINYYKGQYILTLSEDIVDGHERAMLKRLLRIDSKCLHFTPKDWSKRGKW

SMILES | target or system | assay | test system | setting | how to read | measurement | value
COc1cc(Nc2ncc(F)c(Nc3ccc4c(n3)NC(=O)C(C)(C)O4)n2)cc(OC)c1OC | Sodium-dependent serotonin transporter, 5-HT binding site (SLC6A4, Homo sapiens, UniProt P31645) | binding | – | – | – | IC50 | > 10 µM
C[C@H]1CN(c2n[nH]c3nc(N[C@H]4CC[C@H](NS(=O)(=O)CCC(F)(F)F)CC4)ncc23)CCO1 | Mitotic checkpoint protein BUB3 (Homo sapiens, UniProt O43684) | Kinobeads competition, refers to: BUB3 | – | 0.16 µM, unit not given | relative to: vehicle | remaining binding | 1.04
CC(=O)c1c(C)c2cnc(Nc3ccc(C4CCN(CCS(C)(=O)=O)CC4)cn3)nc2n(C2CCCC2)c1=O | – | – | human, plasma | oral, 150 mg, day 1 single dose | – | Tmax | 4.13 h
COc1cccc(Oc2ccccc2NC(=O)CNC(=O)c2cccc3ccccc23)c1 | – | – | esterase-deficient SCID mice, male | oral, 100 mg/kg/day, 14 days, toxicity study | – | serum calcium | 10 mg/dL and 9.3 mg/dL and 10.6 mg/dL
C[C@]1(CO)Cc2ncn(-c3ccc(C#N)c(Cl)c3)c2C(=O)O1 | – | – | Japanese subjects | dose not given, all doses total | – | drug-related Acne incidence | 0%
C[C@]1(O)C[C@@](N)(c2ccc(-c3nc4n(c3-c3ccccc3)COc3ccncc3-4)cc2)C1 | – | – | human, advanced or metastatic solid tumours | 20 mg once daily, phase I dose escalation | – | patients with AST increased | 33.3%
COc1ccc(N2C(=O)N(c3c(C)cccc3Cl)Cc3cnc(Nc4ccc(C5CCN(C)CC5)cc4OC)nc32)nc1 | DAPK3 (Homo sapiens, UniProt O43293) | kinase activity | – | 0.5 µM | – | inhibition | 2.15%
CC(C)[C@@H]1NC(=O)CNC(=O)[C@H](CC(N)=O)NC(=O)[C@H](CCCNC(=N)N)NC(=O)[C@H](Cc2ccc(O)cc2)NC(=O)[C@H](C(C)C)NC(=O)[C@@H](NC(=O)[C@@H](NC(=O)[C@H](CC(N)=O)NC(=O)[C@H](Cc2c[nH]c3ccccc23)NC(=O)[C@H](C)NC(=O)[C@H](Cc2ccccc2)NC(=O)CN)C(C)C)CSSC[C@@H](C(=O)N[C@@H](Cc2cnc[nH]2)C(=O)N[C@@H](CCCNC(=N)N)C(=O)N[C@@H](CCCNC(=N)N)C(=O)N[C@@H](C)C(=O)N[C@@H](CC(N)=O)C(N)=O)NC(=O)[C@H](C(C)C)NC(=O)[C@H](CCCNC(=N)N)NC1=O | – | – | ICR mice, serum | intraperitoneal, 5 mg/kg, day 5 | – | globulin | 19.2 ± 0.1 g/L
CCOc1ccccc1C(=O)Nc1ccc(Cl)c(C(F)(F)F)c1 | KAT5 (Homo sapiens, UniProt Q92993) | SPR | – | 17 µM | higher = more binding | SPR binding response | 0.382 RU
Brc1ccc(Oc2cc(Br)c(Br)cc2Br)c(Br)c1 | – | – | cow whole milk | 200 nM | relative to: milk fat over skim milk | milk fat partition ratio | 250
CC[C@H](C)[C@@H]1NC(=O)[C@@H]2CCCN2C(=O)[C@H](CC(C)C)NC(=O)[C@H](CC(C)C)NC(=O)CNC(=O)[C@@H](NC(=O)[C@@H](NC(=O)[C@H](CC(=O)O)NC(=O)CNC(=O)[C@@H](NC(=O)[C@H](C)NC(=O)CNC(=O)[C@H](CCCCN)NC(=O)[C@H](CC(C)C)NC(=O)[C@H](CC(C)C)NC(=O)[C@H](CCCCN)NC(=O)CNC(=O)[C@@H](NC(=O)[C@@H](N)CC(C)C)C(C)C)C(C)C)C(C)C)CSSC[C@@H](C(=O)O)NC1=O | – | – | female C57BL/6 mice, plasma | intravenous, 10 mg/kg | – | AUC(0-inf) | 1.23 ± 0.157 ng·h/mL
COc1cc2c(Oc3ccc4[nH]c(C)cc4c3F)ccnc2cc1OCC1(N)CC1 | – | – | paediatric refractory sarcoma patients | 8 mg | – | Hematuria incidence | 0%
[2H]c1c([2H])c([C@]2([2H])CCCN2C(=O)C(C)(C)Oc2ccc3cn[nH]c3c2)c([2H])c([2H])c1C([2H])([2H])[2H] | STK32C (Homo sapiens, UniProt Q86UX6) | KINOMEscan | – | 1 µM | relative to: DMSO control | remaining binding | 57%
O=c1cc(-c2ccc(O)c(O)c2)oc2cc(O)cc(O)c12 | – | – | Sprague-Dawley rat, male, obese, urine | oral, 100 mg/kg neohesperidin, 48 h | relative to: dose | urinary recovery | 0.019 ± 0.002%
CN1CC[C@@H](c2c(O)cc(O)c3c(=O)cc(-c4ccc(C(F)(F)F)cc4Cl)oc23)[C@@H]1CO | – | refers to: Chills | AML | oral, 150 mg, intermittent dosing | – | patients with adverse event | 25%
CO[C@H]1C[C@@H]2CC[C@@H](C)[C@@](O)(O2)C(=O)C(=O)N2CCCC[C@H]2C(=O)O[C@H]([C@H](C)C[C@@H]2CC[C@@H](OC(=O)NCCOCCOCCOCCOCCOCCOCCOCCOCCC(=O)N3CCc4cc(Cn5nc(-c6ccc7oc(N)nc7c6)c6c(N)ncnc65)ccc4C3)[C@H](OC)C2)C[C@@H](O)[C@H](C)/C=C(\C)[C@@H](O)[C@@H](OC)C(=O)[C@H](C)C[C@H](C)/C=C/C=C/C=C/1C | – | phase 1 dose escalation, refers to: fatigue | advanced solid tumour patients | intravenous, 12 mg weekly, any grade | – | TRAE incidence | 41.7%
COc1c(CCC[P+](c2ccccc2)(c2ccccc2)c2ccccc2)cc2c(c1OC)OCO2.[I-] | SK-MEL-28 | SRB | – | – | – | GI50 | -6.11 log M
C1=Cc2nc1cc1ccc([n-]1)c(-c1ccccc1)c1nc(cc3ccc([n-]3)c2-c2ccccc2)C=C1.CC(=O)[O-].[Mn+3] | – | LC-MS/MS | Sprague-Dawley rat, plasma | oral gavage, dose not given, 60 min, individual rat Rat2 | – | plasma concentration | 40 ng/mL
O=C(O)CCCOc1ccc(F)cc1-c1cc(-c2ccccc2C(F)(F)F)n(-c2ccccc2)n1 | – | – | Crl:CD(SD) rats, female, blood | iv, 25 µg/kg, 14 days | – | mean corpuscular haemoglobin | 19.7 pg
CC(C)CC(=O)OC[C@H]1O[C@@](C#N)(c2ccc3c(N)ncnn23)[C@H](O)[C@@H]1O | ABCB1 (Homo sapiens, UniProt P08183) | – | Caco-2 | 9 µM, together with: zosuquidar 25 µM | – | Papp A to B | 0.366 ×10⁻⁶ cm/s
Cn1ncc(-c2nc(N[C@H]3CC[C@H](N)CC3)ncc2Cl)c1CC1CC1 | – | phase I dose escalation | human patients | dose not given, treatment-related grade 3 or higher | – | aspartate aminotransferase increase incidence | 3.2%

Some of these lines once more:
SMILES | target or system | assay | test system | setting | how to read | measurement | value
C[C@H]1CN(c2n[nH]c3nc(N[C@H]4CC[C@H](NS(=O)(=O)CCC(F)(F)F)CC4)ncc23)CCO1 | Mitotic checkpoint protein BUB3 (Homo sapiens, UniProt O43684) | Kinobeads competition, refers to: BUB3 | – | 0.16 µM, unit not given | relative to: vehicle | remaining binding | 1.04
CC(=O)c1c(C)c2cnc(Nc3ccc(C4CCN(CCS(C)(=O)=O)CC4)cn3)nc2n(C2CCCC2)c1=O | – | – | human, plasma | oral, 150 mg, day 1 single dose | – | Tmax | 4.13 h
